Experimental data from different studies.
Each line is one published result; not all experiments were run side by side. “And” joins repeats or separate records; there may be more than shown. ± gives the spread as reported.

[177Lu+3].[Cl-].[Cl-].[Cl-]  live cells (4T1; flow cytometry; 0.4 Bq/cell, 24 h): 79.2%
C[C@@H]1Cc2c([nH]c3ccccc23)[C@@H](c2c(F)cc(/C=C/C(=O)O)cc2F)N1C12CC(C1)C2  log2 fold change (MCF7; RNA-seq, refers to: RBM24 mRNA; 1 µM, 24 h, E2-induced gene; relative to: DMSO vehicle): -1.84
CC(C)(C)n1cc(CN(Cc2cn(CC(=O)O)nn2)Cc2cn(C(C)(C)C)nn2)nn1  amount of labelled product (OVCAR-5, HPG-incorporated; live-cell CuAAC, LC-ESI-MS/MS; cytosolic proteins; concentration not given, 10 min, adherent cells, no pre-treatment): 0.36 pg/µg protein and 0.34 pg/µg protein and 0.31 pg/µg protein
COc1ccc(C([O-])=CC(=O)c2ccc(C(C)(C)C)cc2)cc1.[Cl-].[Ru+2].c1ccc(-c2cccc(-c3ccccn3)n2)nc1  phototoxicity index (HL-60; relative to: dark IC50 over light IC50): 1.3
CCN(C(=O)c1cc(F)ccc1Oc1nncnc1N1CCC2(C1)CN([C@H](CCCN(C)CCOC)C(C)C)C2)C(C)C  GI50 (Caco-2; cell growth or viability; 72 h): > 10000 nM
CC(C)(C)c1cc(-c2ccc3cc4ccccc4nc3n2)nc(-c2ccc3cc4ccccc4nc3n2)c1.[Cl-].[Cl-].[Ru+2].c1ccc2cc3nc4c5cccnc5c5ncccc5c4nc3cc2c1  phototoxicity index (A-375; resazurin; with: light 633 nm, 100 J/cm2; relative to: dark EC50 over light EC50): 2
CC(C)c1ccc(N(C)c2ccc3c(c2)OCC[C@H]3CNc2cnccc2C(=O)O)cc1  IC50 (Hs 695T; cell growth or viability, ATP luminescence; 7 days): ≥ 10000 nM
CO[C@@H]1[C@@H](OC(N)=O)[C@@H](O)[C@H](Oc2ccc3c(O)c(NC(=O)c4ccc(O)c(CC=C(C)C)c4)c(=O)oc3c2C)OC1(C)C  colony count (DLD-1 parental; 100 µM, replicate 1): 50
CCCCCCCCCCCC(=O)N[C@H](CO)C[C@@H](O)c1ccccc1  total ceramide level (HeLa; HPLC-MS/MS; 1 µM, 24 h): 79600 pmol/sample and 74600 pmol/sample and 68900 pmol/sample
C=C1CC2(C(=O)OC)C=C(C(=O)OC(C)(C)C)C(=O)C1C2 (stereo not shown)  luminescence (AP-1 reporter HEK293; AP-1 reporter gene, luciferase reporter; 1 µM, 6 h, with: PMA 6 ng/mL; higher = more transcription): 9190 a.u.
CC(C)(C)OC(=O)N1CCN(c2ccc(-c3ccc4ncnc(Nc5ccc(OCc6cccc(F)c6)c(Cl)c5)c4c3)cc2)CC1  EC50 (Leishmania major; intracellular amastigote growth, luciferase; RAW264.7 macrophages): > 3000 nM
Cn1ncc2cc(-c3cncc(Cl)c3N3CCC4(CCNC4=O)CC3)ccc21  log2 fold change (LS174T; gene expression, microarray, refers to: SEMA4D mRNA; concentration not given, 24 h; relative to: untreated cells): 2.05
COC(=O)c1cc(NC2=NC(=O)C(=Cc3ccc(N(C)C)cc3)S2)ccc1OC(C)=O  fold change (MCF7; refers to: ZSWIM7 mRNA; 0.81 µM (IC50), 24 h; relative to: DMSO): 0.314
O=C(N/N=C/c1cc[n+](Cc2ccccc2)c2ccccc12)c1cc(C(=O)N/N=C/c2cc[n+](Cc3ccccc3)c3ccccc23)ncn1  ΔTm (hp2 hairpin duplex DNA; FRET melting; 1 µM, with: ds26 10 µM): 0.7 ± 0.2 °C
CCc1c(C)c2ccc(OC(C)C)c(C)c2oc1=O  viability (MDA-MB-231; cell growth or viability, MTT; 250 µg/mL): 6.84%
COCCn1cc(COc2cccc(Cc3cnc(NC(=O)CSc4nc(C)cc(C)n4)s3)c2)nn1  inhibition (PC-3M-luc; cell viability, MTS; 10 µM): 27.4 ± 1.9%
COc1cccc(OC)c1-c1cc(C(=O)NC2(C(=O)O)C3CC4CC(C3)CC2C4)nn1-c1ccc(C(=O)N(C)CCCN(C)C(=O)[C@H](CCCCNC(=O)[C@H](CC(C)C)NC(=O)C2OC2C(=O)O)NC(=O)CN2CCN(CC(=O)[O-])CCN(CC(=O)[O-])CCN(CC(=O)[O-])CC2)cc1C(C)C.[177Lu+3] (mixture of isomers)  adduct formation (HT-29; SDS-PAGE autoradiography; concentration not given, 4 h; relative to: radioactive signal): 50.3%
Cc1ncsc1-c1ccc(C(C)NC(=O)C2CC(O)CN2C(=O)C(NC(=O)CCCCCCCCCCN2CCCC(Nc3ncc(Cl)c(Nc4ccccc4S(=O)(=O)C(C)C)n3)C2)C(C)(C)C)cc1 (stereo not shown)  log2 fold change (22Rv1; RNA-seq, refers to: RNF214 mRNA; concentration not given; relative to: DMSO): -1.22
CC(C)(COP(=O)(O)OP(=O)(O)OC[C@H]1O[C@@H](n2cnc3c(N)ncnc32)[C@H](O)[C@@H]1OP(=O)(O)O)[C@@H](O)C(=O)NCCC(=O)NCCSCCC(=O)N[C@@H](CO)C(=O)NCC(=O)N[C@@H](CCCNC(=N)N)C(=O)NCC(=O)N[C@@H](CCCCN)C(=O)NCCCC[C@H](NC(=O)CC[C@@H]1NC(=O)[C@@H](CCCNC(=N)N)NC(=O)[C@H](CCCNC(=N)N)NC(=O)[C@@H](CCCNC(=N)N)NC(=O)[C@H](CCCNC(=N)N)NC(=O)[C@H](Cc2csc3ccccc23)NC(=O)[C@@H](Cc2ccccc2)NC(=O)[C@H](Cc2ccccc2)NC1=O)C(N)=O  lowest effective concentration (A549; vimentin expression reduction, Western blot; 2 days): 0.1 µM
CN1CCN(Cc2ccc(C(=O)Nc3ccc4c(/C=C/c5ccccn5)n[nH]c4c3)cc2)CC1  GI50 (Ba/F3 TEL-VEGFR1; cell growth, CCK-8): 550 nM
CC(C)(C)c1nc(-c2cccc(NS(=O)(=O)c3c(F)cccc3F)c2F)c(-c2ccnc(N)n2)s1.Cc1[nH]c2ccccc2c1CCNCc1ccc(/C=C/C(=O)NO)cc1  late apoptotic cells (C13; annexin V/PI flow cytometry; concentration not given, 48 h; relative to: untreated): 3.9 ± 1.2%
O=C1CC[C@H](N2Cc3cc(-c4ccn5ncc(Cl)c5n4)ccc3C2=O)C(=O)N1  log2 fold change (MOLM-13; protein level, TMT proteomics, refers to: A2M; 1 µM, 6 h; relative to: DMSO): 0.0271
CC(=O)OC[C@H]1O[C@@H](n2cc(CSc3nc4ccccc4n3Cc3cn([C@@H]4O[C@H](COC(C)=O)[C@@H](OC(C)=O)C(OC(C)=O)[C@H]4OC(C)=O)nn3)nn2)[C@H](OC(C)=O)C(OC(C)=O)[C@@H]1OC(C)=O (stereo in doubt)  cytotoxicity (Caco-2; MTT; 250 ppm): 91.1%
C[n+]1cccc2cc(/C=N/NC(=O)c3ccc4ccc(C(=O)N/N=C/c5ccc6c(ccc[n+]6C)c5)nc4n3)ccc21  ΔTm (hp2 hairpin duplex DNA; FRET melting; 1 µM, with: ds26 10 µM): 0.7 ± 0.1 °C
CCN(CC)CC(=O)Nc1cccc(-n2cc(-c3ccc4ccc(-c5cn(-c6cccc(NC(=O)CN(CC)CC)c6)nn5)cc4c3)nn2)c1  fold regulation (RCC4; PCR angiogenesis array, refers to: GAPDH; 5 x IC50, 6 h, normoxia; relative to: untreated): -1.28 fold
CN1CCCNC(=O)c2cccc(c2)C(=O)NCCCN(C)CCCNc2cccc3c2C(=O)c2cccc(c2C3=O)NCCC1  log2 fold change (SAS; RNA-Seq, refers to: ATP1B3 mRNA; 5 µM, 24 h; relative to: untreated cells): -2.84
Cc1cc(Cl)cc(-c2ccnc3cc(CN4C(=O)C5C(C4=O)C5(C)C)sc23)c1C[C@@H]1CNCCO1 (stereo partly shown)  viable cells (annexin V-/PI-) (CHP-212 parental (wild-type USP7); annexin V-PI flow cytometry; 1 µM, 48 h): 61% and 50.6% and 52.6%
O=C(c1cncc(-c2ccc3ncnc(Nc4ccc(OCc5cccc(F)c5)c(Cl)c4)c3c2)c1)N1CCOCC1  EC50 (Leishmania major; intracellular amastigote growth, luciferase; RAW264.7 macrophages): > 15000 nM
CC(C)(C)c1cc(-c2ccc3cccnc3n2)nc(-c2ccc3cccnc3n2)c1.[Cl-].[Cl-].[Ru+2].c1cnc2c(c1)ccc1cccnc12  EC50 (A-375; cytotoxicity, resazurin; dark): 292000 ± 9000 nM
CNS(=O)(=O)Nc1nccc(Cc2c(C)c3ccc(Oc4ncccc4F)cc3oc2=O)c1F  IC50 (SNU-449; cell viability; 7 days): > 1000 nM
COc1ccccc1-c1ccncc1C(=O)Nc1nnc(OCc2ccc(Cl)cc2)s1  colony count (MDA-MB-436 BRCA1-mutant; 0.1875 µM): 18 and 17 and 16
C=CC(=O)N1[C@@H](c2ccc3c(c2)OCO3)c2[nH]c3ccccc3c2C[C@H]1C(=O)NC1CC1  neuron degeneration (rat DRG neurons; 0.004572 µM, 48 h, with: vincristine 40 nM): 89.8% and 85.8%
Cc1ccncc1.[Cl-].[Cl-].[Ru+2].c1cc(-c2ccc3cccnc3n2)nc(-c2ccc3cccnc3n2)c1.c1ccc2cc3nc4c5cccnc5c5ncccc5c4nc3cc2c1  EC50 (A-375; resazurin; with: light 733 nm, 9 mW, 100 J/cm2): 1620 nM
COc1cc(N2CCOCC2)ccc1Nc1ncc(Cl)c(Nc2ccccc2NS(C)(=O)=O)n1  BrdU-positive cells (PC-9 EGFR del19/T790M/C797S; 0.03 to 3 µM, 24 h): decreased

Some of these lines once more:
CC(C)(C)c1cc(-c2ccc3cc4ccccc4nc3n2)nc(-c2ccc3cc4ccccc4nc3n2)c1.[Cl-].[Cl-].[Ru+2].c1ccc2cc3nc4c5cccnc5c5ncccc5c4nc3cc2c1  phototoxicity index (A-375; resazurin; with: light 633 nm, 100 J/cm2; relative to: dark EC50 over light EC50): 2
Cc1ccncc1.[Cl-].[Cl-].[Ru+2].c1cc(-c2ccc3cccnc3n2)nc(-c2ccc3cccnc3n2)c1.c1ccc2cc3nc4c5cccnc5c5ncccc5c4nc3cc2c1  EC50 (A-375; resazurin; with: light 733 nm, 9 mW, 100 J/cm2): 1620 nM
CC(=O)OC[C@H]1O[C@@H](n2cc(CSc3nc4ccccc4n3Cc3cn([C@@H]4O[C@H](COC(C)=O)[C@@H](OC(C)=O)C(OC(C)=O)[C@H]4OC(C)=O)nn3)nn2)[C@H](OC(C)=O)C(OC(C)=O)[C@@H]1OC(C)=O (stereo in doubt)  cytotoxicity (Caco-2; MTT; 250 ppm): 91.1%
